Measurements collected from several papers.
Lines come from different studies, so protocols differ. ± marks the error that the study gave.
ADORA1: Adenosine receptor A1 (ADORA1, Homo sapiens, UniProt P30542)
Chain of UniProt P30542 (whole entry, looked up): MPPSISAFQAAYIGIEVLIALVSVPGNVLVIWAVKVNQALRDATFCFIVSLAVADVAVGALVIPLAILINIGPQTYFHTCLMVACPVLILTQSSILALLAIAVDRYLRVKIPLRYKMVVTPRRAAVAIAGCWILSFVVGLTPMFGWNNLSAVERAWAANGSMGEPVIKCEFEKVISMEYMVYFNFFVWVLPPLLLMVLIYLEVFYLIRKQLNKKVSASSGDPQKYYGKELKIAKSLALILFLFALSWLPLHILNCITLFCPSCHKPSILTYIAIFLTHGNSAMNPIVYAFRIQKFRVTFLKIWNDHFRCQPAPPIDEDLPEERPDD
ESR2: Estrogen receptor beta (ESR2, Homo sapiens, UniProt Q92731)
Chain of UniProt Q92731 (whole entry, looked up): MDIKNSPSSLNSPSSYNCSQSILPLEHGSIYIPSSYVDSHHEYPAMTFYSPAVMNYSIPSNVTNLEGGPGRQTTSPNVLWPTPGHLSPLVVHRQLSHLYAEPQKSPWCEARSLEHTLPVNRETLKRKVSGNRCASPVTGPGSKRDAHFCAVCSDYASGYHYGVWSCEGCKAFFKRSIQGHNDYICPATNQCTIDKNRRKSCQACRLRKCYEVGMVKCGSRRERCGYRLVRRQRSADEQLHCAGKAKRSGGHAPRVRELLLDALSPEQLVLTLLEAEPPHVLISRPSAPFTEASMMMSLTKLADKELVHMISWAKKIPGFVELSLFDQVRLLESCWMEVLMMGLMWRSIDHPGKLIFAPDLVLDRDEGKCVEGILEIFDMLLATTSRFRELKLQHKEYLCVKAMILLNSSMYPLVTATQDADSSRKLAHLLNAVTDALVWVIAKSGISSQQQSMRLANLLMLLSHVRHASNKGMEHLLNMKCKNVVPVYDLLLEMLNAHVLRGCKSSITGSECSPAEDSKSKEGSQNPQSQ
ESR1: Estrogen receptor (ESR1, Homo sapiens, UniProt P03372)
Chain of UniProt P03372 (whole entry, looked up): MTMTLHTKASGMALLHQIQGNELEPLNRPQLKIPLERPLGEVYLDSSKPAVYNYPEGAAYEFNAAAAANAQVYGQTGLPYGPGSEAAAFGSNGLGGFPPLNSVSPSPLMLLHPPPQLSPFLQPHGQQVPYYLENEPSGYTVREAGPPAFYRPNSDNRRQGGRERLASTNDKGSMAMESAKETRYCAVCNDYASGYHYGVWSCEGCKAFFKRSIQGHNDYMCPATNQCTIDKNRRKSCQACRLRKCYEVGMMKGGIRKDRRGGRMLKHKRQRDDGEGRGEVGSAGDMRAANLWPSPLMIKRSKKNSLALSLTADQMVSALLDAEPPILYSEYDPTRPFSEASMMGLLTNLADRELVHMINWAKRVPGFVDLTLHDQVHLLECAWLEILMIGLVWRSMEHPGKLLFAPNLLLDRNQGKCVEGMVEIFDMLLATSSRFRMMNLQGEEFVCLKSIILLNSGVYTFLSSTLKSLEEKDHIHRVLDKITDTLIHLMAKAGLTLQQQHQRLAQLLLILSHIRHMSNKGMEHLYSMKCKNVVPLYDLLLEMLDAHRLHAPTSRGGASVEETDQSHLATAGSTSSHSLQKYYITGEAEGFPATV
FPR1: fMet-Leu-Phe receptor (FPR1, Homo sapiens, UniProt P21462)
Chain of UniProt P21462 (whole entry, looked up): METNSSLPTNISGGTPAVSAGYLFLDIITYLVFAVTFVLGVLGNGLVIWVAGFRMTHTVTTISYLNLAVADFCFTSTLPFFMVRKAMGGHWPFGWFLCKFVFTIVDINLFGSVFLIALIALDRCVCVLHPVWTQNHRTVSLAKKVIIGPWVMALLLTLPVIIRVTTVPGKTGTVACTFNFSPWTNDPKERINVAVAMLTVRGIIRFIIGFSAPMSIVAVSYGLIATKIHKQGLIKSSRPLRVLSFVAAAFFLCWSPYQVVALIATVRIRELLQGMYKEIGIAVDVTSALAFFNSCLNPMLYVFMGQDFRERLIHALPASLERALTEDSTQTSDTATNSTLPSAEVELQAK
C3AR1: C3a anaphylatoxin chemotactic receptor (C3AR1, Homo sapiens, UniProt Q16581)
Chain of UniProt Q16581 (whole entry, looked up): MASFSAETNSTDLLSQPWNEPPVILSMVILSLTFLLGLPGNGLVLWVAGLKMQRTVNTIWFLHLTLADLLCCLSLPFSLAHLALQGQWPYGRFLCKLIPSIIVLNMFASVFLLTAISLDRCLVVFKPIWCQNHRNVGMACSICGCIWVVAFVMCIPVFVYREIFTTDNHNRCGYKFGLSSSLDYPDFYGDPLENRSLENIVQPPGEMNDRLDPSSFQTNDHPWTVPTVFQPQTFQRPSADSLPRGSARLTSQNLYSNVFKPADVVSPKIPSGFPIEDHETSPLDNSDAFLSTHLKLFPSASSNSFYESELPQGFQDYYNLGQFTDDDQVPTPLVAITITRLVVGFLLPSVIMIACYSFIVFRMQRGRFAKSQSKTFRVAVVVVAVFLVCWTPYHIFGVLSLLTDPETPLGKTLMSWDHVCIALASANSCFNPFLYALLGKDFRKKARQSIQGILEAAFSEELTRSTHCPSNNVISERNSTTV
CHRM5: Muscarinic acetylcholine receptor M5 (CHRM5, Homo sapiens, UniProt P08912)
Chain of UniProt P08912 (whole entry, looked up): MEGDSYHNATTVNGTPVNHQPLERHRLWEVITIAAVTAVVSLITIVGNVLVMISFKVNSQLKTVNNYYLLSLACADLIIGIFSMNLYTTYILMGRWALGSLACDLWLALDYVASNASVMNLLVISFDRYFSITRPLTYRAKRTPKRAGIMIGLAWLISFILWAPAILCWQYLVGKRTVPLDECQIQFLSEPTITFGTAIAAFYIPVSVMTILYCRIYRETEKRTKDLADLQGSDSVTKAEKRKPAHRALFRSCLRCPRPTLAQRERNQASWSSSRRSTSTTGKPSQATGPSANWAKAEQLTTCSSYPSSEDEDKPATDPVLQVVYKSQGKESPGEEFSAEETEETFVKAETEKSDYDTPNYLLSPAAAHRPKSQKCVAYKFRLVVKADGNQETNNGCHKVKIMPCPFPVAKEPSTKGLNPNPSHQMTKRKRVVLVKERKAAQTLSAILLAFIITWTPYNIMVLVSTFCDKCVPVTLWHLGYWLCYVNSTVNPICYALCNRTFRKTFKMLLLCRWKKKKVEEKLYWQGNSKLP
Chain of UniProt P47870 (whole entry, looked up): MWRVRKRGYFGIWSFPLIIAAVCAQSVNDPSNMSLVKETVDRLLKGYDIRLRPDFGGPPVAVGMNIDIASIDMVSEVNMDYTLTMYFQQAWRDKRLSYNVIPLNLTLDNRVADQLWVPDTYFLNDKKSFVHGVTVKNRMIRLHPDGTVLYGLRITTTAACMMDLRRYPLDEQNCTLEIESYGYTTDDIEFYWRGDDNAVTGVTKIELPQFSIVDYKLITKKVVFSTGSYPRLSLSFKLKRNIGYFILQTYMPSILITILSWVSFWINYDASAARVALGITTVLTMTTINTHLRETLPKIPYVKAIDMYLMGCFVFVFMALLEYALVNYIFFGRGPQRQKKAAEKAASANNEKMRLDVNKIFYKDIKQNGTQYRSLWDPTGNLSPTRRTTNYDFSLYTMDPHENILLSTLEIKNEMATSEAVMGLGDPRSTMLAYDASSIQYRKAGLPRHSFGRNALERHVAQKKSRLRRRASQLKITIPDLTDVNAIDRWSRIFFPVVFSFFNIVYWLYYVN
Chain of UniProt P11229 (whole entry, looked up): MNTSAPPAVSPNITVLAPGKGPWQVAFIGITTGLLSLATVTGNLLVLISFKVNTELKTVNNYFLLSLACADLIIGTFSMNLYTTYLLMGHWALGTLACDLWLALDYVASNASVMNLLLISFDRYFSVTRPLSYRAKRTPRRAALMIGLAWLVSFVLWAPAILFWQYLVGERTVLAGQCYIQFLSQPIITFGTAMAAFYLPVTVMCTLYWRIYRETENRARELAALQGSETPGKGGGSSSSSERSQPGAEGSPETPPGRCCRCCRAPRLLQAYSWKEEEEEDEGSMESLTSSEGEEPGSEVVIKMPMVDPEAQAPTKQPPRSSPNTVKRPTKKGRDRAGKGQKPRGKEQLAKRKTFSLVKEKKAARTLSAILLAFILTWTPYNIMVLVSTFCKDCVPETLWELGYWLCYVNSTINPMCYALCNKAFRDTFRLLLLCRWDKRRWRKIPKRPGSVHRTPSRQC
Chain of UniProt P18507 (whole entry, looked up): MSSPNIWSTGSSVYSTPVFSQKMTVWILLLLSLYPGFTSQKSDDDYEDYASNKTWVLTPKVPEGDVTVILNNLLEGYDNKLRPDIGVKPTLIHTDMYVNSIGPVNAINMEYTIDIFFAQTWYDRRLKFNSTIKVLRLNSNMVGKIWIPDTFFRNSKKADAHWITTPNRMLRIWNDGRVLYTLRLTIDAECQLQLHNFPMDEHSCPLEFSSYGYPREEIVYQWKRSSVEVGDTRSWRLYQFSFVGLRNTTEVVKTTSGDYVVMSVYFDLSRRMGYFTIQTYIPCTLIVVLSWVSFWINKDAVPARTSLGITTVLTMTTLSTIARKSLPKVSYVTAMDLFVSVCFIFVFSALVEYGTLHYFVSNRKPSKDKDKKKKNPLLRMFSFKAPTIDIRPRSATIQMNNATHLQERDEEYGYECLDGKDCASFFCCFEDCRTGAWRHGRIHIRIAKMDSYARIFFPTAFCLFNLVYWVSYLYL
Chain of UniProt O43741 (whole entry, looked up): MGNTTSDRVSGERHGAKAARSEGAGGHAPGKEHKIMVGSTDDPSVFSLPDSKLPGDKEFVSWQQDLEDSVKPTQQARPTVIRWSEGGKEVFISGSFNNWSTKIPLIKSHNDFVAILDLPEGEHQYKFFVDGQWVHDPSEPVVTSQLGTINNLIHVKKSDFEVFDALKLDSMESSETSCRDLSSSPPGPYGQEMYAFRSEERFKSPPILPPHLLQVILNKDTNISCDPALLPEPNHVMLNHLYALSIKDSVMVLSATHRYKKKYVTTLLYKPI
Chain of UniProt O60894 (whole entry, looked up): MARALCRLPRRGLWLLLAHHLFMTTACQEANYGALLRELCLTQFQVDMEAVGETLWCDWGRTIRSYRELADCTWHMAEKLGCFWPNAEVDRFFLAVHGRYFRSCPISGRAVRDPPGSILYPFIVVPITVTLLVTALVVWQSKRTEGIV

Structure (SMILES)	tested on	test	test system	setting	scale	measurement	result
O=C(c1cc2c(s1)CCCCC2)N1CCC(n2c(=O)[nH]c3ccccc32)CC1	Short transient receptor potential channel 6 (Trpc6, Mus musculus, UniProt Q61143, Y704W)	channel activation, agonist, whole-cell patch clamp	–	–	–	EC50	2930 ± 740 nM
COc1ccc(C(=O)Nc2c(-c3cccs3)nc3ccccn23)cc1	Gamma-aminobutyric acid receptor subunit delta/Gamma-aminobutyric acid receptor subunit beta-2/Gamma-aminobutyric acid receptor subunit alpha-6 (Homo sapiens, UniProt O14764+P47870+Q16445)	positive allosteric modulator, FLIPR membrane potential	cells expressing α6β2δ GABA-A receptor	–	–	EC50	2250 nM
CCNC(=O)[C@H]1O[C@@H](n2cnc3c(NCCCNC(=O)CCCCCNC(=O)COc4ccc(/C=C/C5=[N+]6C(=Cc7ccc(-c8cccs8)n7[B-]6(F)F)C=C5)cc4)ncnc32)[C@H](O)[C@@H]1O	ADORA1	CRE-SPAP reporter gene, agonist	CHO-A1	Gs enhancement, together with: forskolin, pertussis toxin 100 ng/mL overnight	–	EC50	240 nM
O=C1/C(=C\c2cccc(F)c2)Oc2cc(O)ccc21	ESR2	coactivator recruitment, agonist	–	–	–	EC50	910 nM
O=S(=O)(Oc1ccc2ccccc2c1)C1CC2OC1C(c1ccc(O)cc1)=C2c1ccc(O)cc1 (racemic)	ESR1	reporter gene, agonist, ERE luciferase	HepG2 transfected with ERα	24 h	–	EC50	> 10000 nM
CSCC[C@H](NC=O)C(=O)N[C@@H](CC(C)C)C(=O)N[C@@H](Cc1ccccc1)C(=O)N[C@@H](Cc1ccccc1)C(=O)O	FPR1	binding, competitor	U-937	4 °C, together with: 5 nM WK(FL)YMVm	–	EC50	1 ± 0.6 nM
CC(C)C[C@H](NC(=O)CNC(=O)[C@H](CC(C)C)NC(=O)[C@H](CCCCN)NC(=O)[C@H](CO)NC(=O)[C@H](C)NC(=O)[C@H](CCCN=C(N)N)NC(=O)[C@H](Cc1ccc(O)cc1)NC(=O)[C@H](CCCCN)NC(=O)[C@H](CCCCN)NC(=O)CNC(=O)[C@H](Cc1c[nH]c2ccccc12)NC(=O)[C@@H](N)Cc1c[nH]c2ccccc12)C(=O)N[C@@H](C)C(=O)N[C@@H](CCCN=C(N)N)C(=O)O	C3AR1	β-arrestin recruitment, agonist, luciferase	–	–	–	EC50	300 to 500 nM
C=CCc1cccc(-c2cc(/C=C/C(=O)O)ccc2O)c1	Retinoic acid receptor RXR-alpha (RXRA, Homo sapiens, UniProt P19793)	coactivator recruitment, agonist, FP	–	–	–	EC50	260 nM
CC[C@H]1[C@@H](O)[C@@H]2[C@H](CC[C@]3(C)[C@@H]([C@H](C)CCOS(=O)(=O)[O-])CC[C@@H]23)[C@@]2(C)CC[C@@H](O)C[C@@H]12.[Na+]	–	–	ob/ob NASH mice, plasma	oral, 10 mg/kg once daily, 8 wk	–	plasma ALT	250 ± 21.6 U/L
CC(C)C[C@@H]1NC(=O)[C@H](CCCNC(=N)N)NC(=O)[C@H](C(C)C)NC(=O)[C@H](Cc2c[nH]cn2)NC(=O)[C@H](Cc2c[nH]cn2)NC(=O)CNC(=O)[C@H](CCCCN)NC(=O)[C@H](CC(C)C)NC(=O)[C@H](CC(N)=O)NC(=O)[C@H]([C@@H](C)O)NC(=O)[C@H](CO)NC(=O)[C@H](CC(N)=O)NC(=O)[C@@H]2CCCN2C(=O)[C@H](CO)NC(=O)[C@@H]2CCCN2C(=O)[C@H](C(C)C)NC(=O)[C@H](CCCNC(=N)N)NC(=O)[C@H](Cc2c[nH]cn2)NC(=O)[C@@H]2CSSC[C@H](NC1=O)C(=O)N[C@@H](CCCCN)C(=O)N1CCC[C@H]1C(=O)N[C@H](C(=O)N[C@@H](CCCCN)C(=O)N[C@@H](CC(C)C)C(=O)N[C@@H](CCC(=O)O)C(=O)N1CCC[C@H]1C(=O)N[C@@H](CCC(=O)O)C(=O)N1CCC[C@H]1C(=O)N[C@@H](CCCNC(=N)N)C(=O)N[C@@H](CC(C)C)C(=O)N[C@@H](Cc1c[nH]c3ccccc13)C(=O)N[C@H](C(=O)N[C@H](C(=O)N1CCC[C@H]1C(=O)NCC(=O)N[C@@H](C)C(=O)N[C@@H](CC(C)C)C(=O)N1CCC[C@H]1C(=O)N[C@@H](CCC(N)=O)C(=O)N[C@H](C(=O)O)C(C)C)C(C)C)C(C)C)CSSC[C@H](NC(=O)[C@H](CC(C)C)NC(=O)[C@H](CCCNC(=N)N)NC(=O)[C@@H](NC(=O)[C@H](CCCNC(=N)N)NC(=O)[C@H](CCCNC(=N)N)NC(=O)CNC(=O)[C@H](CO)NC(=O)[C@H](Cc1c[nH]c3ccccc13)NC(=O)[C@H](C)NC(=O)[C@H](CCCCN)NC(=O)[C@H](C)NC(=O)[C@@H]1CCCN1C(=O)[C@H](CCCNC(=N)N)NC(=O)[C@H](CCCNC(=N)N)NC(=O)[C@@H](N)CCCCN)[C@@H](C)O)C(=O)N2	G-protein coupled receptor 15, with Gi/o (Homo sapiens, UniProt P49685)	cAMP inhibition, agonist, HTRF	HEK293A stably expressing GPR15	together with: forskolin	–	EC50	11 nM
CSCC[C@H](NC(=O)[C@H](CCCNC(=N)N)NC(=O)[C@H](CCCCN)NC(=O)[C@@H](N)Cc1c[nH]c2ccccc12)C(=O)N[C@H](C(=O)N[C@H](CCSC)C(N)=O)C(C)C	FPR1	binding, flow cytometry competition	U-937	4 °C, together with: 5 nM WK(FL)YMVm probe	–	EC50	no binding
Cc1ccc(Oc2nc3cc(-c4ccc5c(ccn5C)c4)c(Cl)cc3[nH]2)cc1C(=O)O	PRKAB2/PRKAA2 (Homo sapiens, UniProt O43741+P54646)	enzyme activity, activator	–	–	–	EC50	510 nM
CCCCOc1ccc(C(=O)OCC[N+]2(C)CC=CCC2)cc1 (stereo not shown)	CHRM5	inositol phosphate accumulation, antagonist, Schild analysis	CHO	together with: carbachol	–	Kb	1620 nM
CC[C@H](C)NC(=O)/C(=C\Nc1ccc(Cl)cc1)C(=O)c1ccccc1Cl	GABA A receptor alpha-2/beta-2/gamma-2 (Homo sapiens, UniProt P18507+P47869+P47870)	GABA current potentiation, positive modulator, two-electrode voltage clamp	Xenopus laevis oocytes	30 s preincubation, together with: GABA EC10	–	EC50	160 ± 40 nM
N#Cc1c(N)nc(SCc2ncc[nH]2)c(C#N)c1-c1ccc(O)cc1	Adenosine receptor A2a (ADORA2A, Homo sapiens, UniProt P29274)	–	–	–	–	EC50	10 nM
N=C(N)NCCC[C@H](NC(=O)[C@H](CC(=O)O)NC(=O)[C@@H]1CSCCCC(=O)NCC(=O)N[C@@H](Cc2c[nH]cn2)C(=O)N[C@H](Cc2ccccc2)C(=O)N[C@@H](CCCNC(=N)N)C(=O)N[C@H](Cc2c[nH]c3ccccc23)C(=O)N1)C(=O)N[C@@H](Cc1ccccc1)C(=O)NCC(N)=O	Melanocortin receptor 3 (MC3R, Homo sapiens, UniProt P41968)	cAMP, agonist	–	–	–	EC50	100 nM

Structure (SMILES)	tested on	test	test system	setting	scale	measurement	result
CCNC(=O)[C@H]1O[C@@H](n2cnc3c(NCCOCCOCCNC(=O)CCCCCNC(=O)COc4ccc(/C=C/C5=[N+]6C(=Cc7ccc(-c8cccs8)n7[B-]6(F)F)C=C5)cc4)ncnc32)[C@H](O)[C@@H]1O	ADORA1	CRE-SPAP reporter gene, agonist	CHO-A1	Gs enhancement, together with: forskolin	–	EC50	1620 nM
CC(=O)N[C@H](C(=O)N[C@H](C(=O)N[C@@H](CCCNC(=N)N)C(=O)N1Cc2ccccc2C[C@H]1C(=O)N[C@@H](Cc1ccccc1)C(N)=O)C1CCCCC1)C(C)C	human PBMC	Bio-Plex multiplex, measured: IL-15	–	500 µg/mL, 24 h	–	cytokine level	< 0.19 pg/mL
CCNC(=O)[C@H]1O[C@@H](n2cnc3c(NCCCCNC(=O)CCCCCNC(=O)COc4ccc(/C=C/C5=[N+]6C(=Cc7ccc(-c8cccs8)n7[B-]6(F)F)C=C5)cc4)ncnc32)[C@H](O)[C@@H]1O	ADORA1	CRE-SPAP reporter gene, agonist	CHO-A1	Gs enhancement, together with: forskolin, pertussis toxin 100 ng/mL overnight	–	EC50	398 nM
CCCCCCOc1ccc(C(=O)OCCN2CC=CCC2)cc1	CHRM5	inositol phosphate accumulation, antagonist, Schild analysis	CHO	together with: carbachol	–	Kb	2090 nM
COc1cc(/C=C2\Cc3ccccc3C2=O)ccc1O	ESR2	coactivator recruitment, agonist	–	–	–	EC50	630 nM
CC/C(=C(\c1ccccc1)c1ccc(OCCN(C)CCCCC(=O)NCCc2c[nH]c3ccc(OC)cc23)cc1)c1ccccc1	Melatonin receptor type 1A (MTNR1A, Homo sapiens, UniProt P48039)	β-arrestin recruitment, agonist, BRET	–	–	–	EC50	9770 nM
COc1ccc(OC)c(COC(=O)c2ccc(O)cc2)c1	ESR2	coactivator recruitment, agonist	–	–	–	EC50	1130 nM
N=C(N)NCCC[C@H](NC(=O)[C@H](Cc1ccccc1)NC(=O)[C@@H](N)CO)C(=O)N[C@@H](CC(N)=O)C(N)=O	Neuropeptide S receptor (Mus musculus, UniProt Q8BZP8)	cAMP, agonist, TR-FRET	–	–	–	EC50	800 nM
Cc1ccc(Oc2cc(C(=O)NCc3ccccn3)nc3ccsc23)cn1	Muscarinic acetylcholine receptor M1 (CHRM1, Homo sapiens, UniProt P11229)	positive allosteric modulator	–	–	–	EC50	> 30000 nM
CC(C)C[C@H](NC(=O)CNC(=O)[C@H](CC(C)C)NC(=O)[C@H](CCCCN)NC(=O)[C@H](CO)NC(=O)[C@H](C)NC(=O)[C@H](CCCN=C(N)N)NC(=O)[C@H](Cc1ccc(O)cc1)NC(=O)[C@H](CCCCN)NC(=O)[C@H](CCCCN)NC(=O)CNC(=O)[C@H](Cc1c[nH]c2ccccc12)NC(=O)[C@@H](N)Cc1c[nH]c2ccccc12)C(=O)N[C@@H](C)C(=O)N[C@@H](CCCN=C(N)N)C(=O)O	C3AR1	β-arrestin1 recruitment, agonist, BRET	–	together with: GRK2 co-expression	–	EC50	5.4 nM
NS(=O)(=O)c1ccc(NC(=O)NN[C@@H]2O[C@H](CO)[C@@H](O)[C@H](O)[C@H]2O)cc1	rabbit erythrocytes	–	–	32 µg/mL, 3 h	relative to: complete lysis	hemolysis	0%
O=S(=O)(Oc1ccc(F)cc1)C1CC2OC1C(c1ccc(O)cc1)=C2c1ccc(O)cc1 (racemic)	ESR1	reporter gene, agonist, luciferase	–	–	–	EC50	200 nM
N=C(N)NCCC[C@H](NC(=O)[C@H](CC(=O)O)NC(=O)[C@@H]1CSCC(=O)NCC(=O)N[C@@H](Cc2c[nH]cn2)C(=O)N[C@H](Cc2ccccc2)C(=O)N[C@@H](CCCNC(=N)N)C(=O)N[C@@H](Cc2c[nH]c3ccccc23)C(=O)N1)C(=O)N[C@@H](Cc1ccccc1)C(=O)NCC(N)=O	Melanocyte-stimulating hormone receptor (MC1R, Homo sapiens, UniProt Q01726)	cAMP, agonist	–	–	–	EC50	> 1000 nM
CC(C)C[C@H](NC(=O)[C@@H](N)[C@@H](C)O)C(=O)N[C@@H](CCC(N)=O)C(=O)N1CCC[C@H]1C(=O)N1CCC[C@H]1C(=O)N[C@@H](C)C(=O)N[C@@H](CO)C(=O)N[C@@H](CO)C(=O)N[C@@H](CCCNC(=N)N)C(=O)N[C@@H](CCCNC(=N)N)C(=O)N[C@@H](CCCNC(=N)N)C(=O)N[C@@H](Cc1c[nH]cn1)C(=O)N[C@@H](Cc1ccccc1)C(=O)N[C@@H](Cc1c[nH]cn1)C(=O)N[C@@H](Cc1c[nH]cn1)C(=O)N[C@@H](C)C(=O)N[C@@H](CC(C)C)C(=O)N1CCC[C@H]1C(=O)N1CCC[C@H]1C(=O)N[C@@H](C)C(=O)N[C@@H](CCCNC(=N)N)C(=O)O	C3AR1	receptor internalization, agonist, ELISA surface expression	HEK293T, β-arrestin2, GRK2 co-expressed	60 min, 37 °C	–	EC50	416 nM
CSCC[C@H](NC(=O)[C@H](CC(C)C)NC(=O)[C@H](CCC(N)=O)NC(=O)[C@H](Cc1c[nH]c2ccccc12)NC(=O)[C@H](CC(C)C)NC(=O)[C@H](CCCCN)NC(=O)[C@H](Cc1c[nH]cn1)NC(=O)[C@H](CO)NC(=O)[C@H](CC(C)C)NC(=O)[C@H](CC(N)=O)NC(=O)[C@H](CCC(N)=O)NC(=O)[C@@H](NC(=O)[C@H](CCC(N)=O)NC(=O)[C@@H]1CSSC[C@H](NC(=O)CNC(=O)[C@@H](N)C(C)C)C(=O)N[C@@H](C(C)C)C(=O)N[C@@H](CC(C)C)C(=O)NCC(=O)N[C@@H]([C@@H](C)O)C(=O)N1)C(C)C)C(=O)NCC(=O)N1CCC[C@H]1C(=O)N[C@@H](C)C(=O)NCC(=O)N[C@@H](CCCCN)C(=O)N[C@@H](CCC(N)=O)C(=O)N[C@@H](CC(=O)O)C(=O)N[C@@H](CO)C(=O)N[C@@H](C)C(=O)N1CCC[C@H]1C(=O)N[C@H](C(=O)N[C@@H](CC(=O)O)C(=O)N1CCC[C@H]1C(=O)N[C@@H](CO)C(=O)N[C@@H](CO)C(=O)N1CCC[C@H]1C(=O)N[C@@H](Cc1c[nH]cn1)C(=O)N[C@@H](CO)C(=O)N[C@@H](Cc1ccc(O)cc1)C(N)=O)C(C)C	Calcitonin-gene-related peptide receptor, CALCRL/RAMP1 (Homo sapiens, UniProt O60894+Q16602)	cAMP, agonist, CAMYEL BRET	COS-7	37 °C	–	EC50	6.03 nM

Some of these lines once more:
Structure (SMILES)	tested on	test	test system	setting	scale	measurement	result
Cc1ccc(Oc2nc3cc(-c4ccc5c(ccn5C)c4)c(Cl)cc3[nH]2)cc1C(=O)O	PRKAB2/PRKAA2 (Homo sapiens, UniProt O43741+P54646)	enzyme activity, activator	–	–	–	EC50	510 nM
CCCCOc1ccc(C(=O)OCC[N+]2(C)CC=CCC2)cc1 (stereo not shown)	CHRM5	inositol phosphate accumulation, antagonist, Schild analysis	CHO	together with: carbachol	–	Kb	1620 nM
